Measurements pooled from the literature.
Every numbered part comes from another study and shows a few of its results, in no order.

Series 1 — technique: Spec-seq; form: double-stranded DNA, one strand shown; matrix: in vitro; tested at: not given; setting: whole probe, mean of replicates; baseline: not given; reading: lower = stronger binding; constant ends, left off below: GAGTCGTCTCGTCAGCAC … CCGTAGAGCACTCAGGTC
Target: POU domain, class 5, transcription factor 1, POU domain (Pou5f1, Mus musculus, UniProt P20263, residues 131-289)
Chain of UniProt P20263 (131-289, looked up): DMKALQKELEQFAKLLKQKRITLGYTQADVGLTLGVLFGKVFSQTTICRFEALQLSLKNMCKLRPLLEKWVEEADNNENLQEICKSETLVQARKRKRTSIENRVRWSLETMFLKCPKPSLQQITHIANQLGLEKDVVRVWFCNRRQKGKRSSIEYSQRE
Strand | relative binding energy [ln ratio]
ATGCAATC | -0.298
TAAATAAT | -0.656
ATTCTAAT | -0.455
GTAATAAT | 0.121
GCTCTAAT | 0.751
GCCCTAAT | 0.801
AGAATAAT | -1.04
ATTCTCAT | 0.353
ATGCATAA | -1.89
ATCCTTAT | 0.578
ATGCATCA | -0.369
AAACTAAT | 0.335
ATTAGCAT | -2.99
ATGCCGTC | 0.754
ATAAGAAT | -0.0476
ATGAGTAT | 0.496
TGAATAAT | -1.76
ATTGGAAT | -0.357
AGCCTAAT | 0.613
ATGCCAAT | 0.358
ATATGGAT | -0.379

Series 2 — technique: RNA Bind-n-Seq; form: RNA; matrix: in vitro; tested at: 200 nM; setting: whole 134-nt RNA, ends assumed; together with: 150 mM KCl; baseline: input library; reading: higher = stronger binding
Target: Fragile X messenger ribonucleoprotein 1, C-terminal low-complexity region (Fmr1, Mus musculus, UniProt P35922)
Constant ends, left off below: GGGAGUUCUACAGUCCGACGAUC … UGGAAUUCUCGGGUGUCAAGG
Strand | log2 enrichment
CAAGUCCUGUGCUACACAUCGUAUGUACCGAAUCGGUUUGGAAAAAAAGGUUUGGAAAGUAUUAUGUUACGCCGUUCGGAUCUGCACUUC | -1.04
GUCCUGUGCUACACAUCGUAUGUACCGAAUCGGGAAAAAGGGAAAAAAAGGGAAAGGGAAAGUAUUAUGUUACGCCGUUCGGAUCUGCAC | -0.325
CAAGUCCUGUGCUACACAUCGUAUGUACCGAAUCGGGUUUGGGUUUUUGGGAGGGAAAGUAUUAUGUUACGCCGUUCGGAUCUGCACUUC | 1.09
GCAGGAAGUAAAAACAAAUGGAAAUGCUUCGGAUAGUGGCAGGGGUGGGGGUUGCUUAGGAAAGGGUGGGAUGGGAGUGGGUAAAGAGUU | 0.213
UCAAGUCCUGUGCUACACAUCGUAUGUACCGAAUCGGAAAAAGGUUUUUGGAGGAAAGUAUUAUGUUACGCCGUUCGGAUCUGCACUUCC | -0.625
UUCACAGCCAGCAGGCAUUGGAAUAUGGCACCAAACUCGUUGGAGGAACCACUCCAGGGAAAGGAGGCCAGACACAUCUGGGCUUACCUG | -0.342
CAAGUCCUGUGCUACACAUCGUAUGUACCGAAUCGGGAAAGGGGAAAGGAAAGGGAAAGUAUUAUGUUACGCCGUUCGGAUCUGCACUUC | -0.142
AAGUCCUGUGCUACACAUCGUAUGUACCGAAUCGGAAAAAGGAAAGGUUUUUUUGGAAAGUAUUAUGUUACGCCGUUCGGAUCUGCACUU | -1.27
UCCUCAAGUCCUGUGCUACACAUCGUAUGUACCGAAUCGGGCGGCGGCGGGGAAAGUAUUAUGUUACGCCGUUCGGAUCUGCACUUCCAG | 0.33
GUCCUGUGCUACACAUCGUAUGUACCGAAUCAAACCCCCAAACCCCCCCAAACCCAAAAAAGUAUUAUGUUACGCCGUUCGGAUCUGCAC | -0.224
CUCAAGUCCUGUGCUACACAUCGUAUGUACCGAAUCGGGUUGGUUGGGGUUGGGAAAGUAUUAUGUUACGCCGUUCGGAUCUGCACUUCC | 0.938
CAAGUCCUGUGCUACACAUCGUAUGUACCGAAUCGGUUUGGUUUUUGGAAAAAGGAAAGUAUUAUGUUACGCCGUUCGGAUCUGCACUUC | -0.528
UGGGAGGUGGAUUUUGUUUAUUUUUUUAGCUCAUUUCCAGGGGUCGGAAUUUUUUUUUAAUAUGUGUCAUGAAUAAAGUUGUUUUUGAAA | 0.199
GUCCUGUGCUACACAUCGUAUGUACCGAAUCGGGAAAGGGUUUUUGGGAAAAAAAGGGAAAGUAUUAUGUUACGCCGUUCGGAUCUGCAC | -0.208

Series 3 — technique: RNA Bind-n-Seq; form: RNA; matrix: in vitro; tested at: 100 nM; baseline: input RNA pool; reading: higher = stronger binding
Target: RING finger protein unkempt homolog, zinc fingers 1-6, SBP tag (UNK, Homo sapiens, UniProt Q9C0B0, residues 30-357)
Chain of UniProt Q9C0B0 (30-357, looked up): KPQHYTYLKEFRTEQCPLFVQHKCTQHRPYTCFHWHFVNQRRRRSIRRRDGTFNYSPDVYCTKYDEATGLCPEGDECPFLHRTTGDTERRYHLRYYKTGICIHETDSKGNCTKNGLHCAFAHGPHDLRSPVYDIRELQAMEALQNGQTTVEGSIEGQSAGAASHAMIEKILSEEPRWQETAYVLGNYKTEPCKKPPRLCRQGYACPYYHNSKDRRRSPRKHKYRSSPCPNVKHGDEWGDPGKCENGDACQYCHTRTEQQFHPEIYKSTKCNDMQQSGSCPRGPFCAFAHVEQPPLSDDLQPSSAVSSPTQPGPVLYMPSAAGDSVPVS
Setting: RNA with constant flanks, vertebrate orthologous sites, ends assumed
Constant ends, left off below: GGGAGUUCUACAGUCCGACGAUC … CAACAGAGGAUUGAGCAUCA
Strand | bound/input enrichment [ratio]
UCUACUGACCACUCACUGUUAUGUCUGGAUAUCUGUAAACACUUUUCUUUUUGUUCUUAGUCUUUUUCUUGUAUAAUUGAUGUUCUCUAAAAUUGUUAAUGUAUCACAGGGCUCAUGUUU | 1.39
UGCAUUAUUUGACCAGAGUUGAGGUGACAGAGUUUGAAGAUAUCAAAUCAGGUUACAGAAUAGAUUUUUAUUUUGACGAGAAUCCAUACUUUGAAAAUAAAGUUCUCUCCAAAGAGUUUC | 0.891
CCGAAAGGCCAAAUUCCCUCCUCCCUUCUACUGCUUCUACCAACUGGAAGCACAGAAAACUAGAAUUUCAUUUAUUUUGUUUUUAAAAUACAUAUGUUGAUUUCUUGUAACAUCCAAUAG | 0.568
CCUGUGAGGGUCUACUGACCACUCACCAUUACGUCUGGUAUCUGUAAACACUCUUGUUCCUAGUCUUUUUCUUGUAUAAUUGAUGUCCUUUGAAAUCGUUAAUGUAUAACAGGGCUUAUG | 2.59
UGGAAGUAUUUAUACUGGCCAAACAUUUUUUACUUAUUUUGAUCCCCCCCUUUUUUUUGGUAGUUCUUGUUACCCACACCAUUUUAUGUCUCCUUCACUGAAGGGCUAGAGUUUUAAGUU | 0.781
AGGAAAUGCUCGCUGCAAACCCUCAGGAUCGUCCAGAUGCUUUUGAACUAGAACUCAGAUUAGUACAAAUUGCAUUUAAAGAUAGCAGCUGGGAAACGUGACAUAUAUAUUGUUUGCAAA | 0.818
AACCUAAAAUUACAGCAAAAGAGCCAAGCAGUAGAAUUGUUUUUUUCAUAUAUGUAAAAAUAAUUACAUCCAGACUUUCCUUAUUCAAUUUUAAAAAUAAAAAAAUACCUCAGUGCUAUG | 0.77
UUUCCCAUUGCCCCUAAAGUAGAACUUUUUAAAACUGUGUCACCACCACUUCUAAAAAUUUAGCAAUAUUUGAAGAAAAUGCUAAAAAUGAAAUUUUGCUUGGUGUUUUGCAAACCAAAU | 0.393
UUGUGAUCAGCUCUCCAAACAGAAAUAGUAGUAAAAAAAAUAAGCAAAAUGAUAUUUGUAUAGAAAAAACAGAUGUUAAAUCAUGUAAAGUAAAUAUUGCCAGCAUUCCAGGCCCUAAAG | 2.39
GGAGCUUGUGUUUGGCUGCACCUGCGUCAUAAGCUGCUACAACCAGAAUAAAGAGUUUCCGAGCCUGCGUCUCGCUUAGGUGCAUGGGAGUGGGCUUUGCGCACAGGGCUUGGAGCUGAC | 0.443
UAUUCCUGUCAUACCAGCAUAUUUACCUCUCGUCUGUGCACAGCUUCAAAUGUUACCGUCUAGUUAGAUUUUUAUUUAAAAUAUGAAAAACUGCUUUUCCCAAGAUGUUUUUUUAAAGAC | 1.53

Series 4 — technique: protein binding microarray; form: double-stranded DNA, one strand shown; matrix: in vitro; tested at: not given; baseline: not given; reading: higher = stronger binding
Target: Histone acetyltransferase KAT6A, winged helix 1, GST fusion (KAT6A, Homo sapiens, UniProt Q92794, residues 1-85)
Setting: 8-mer, flanks averaged, mean of 2 arrays, mostly near background
Construct (chain): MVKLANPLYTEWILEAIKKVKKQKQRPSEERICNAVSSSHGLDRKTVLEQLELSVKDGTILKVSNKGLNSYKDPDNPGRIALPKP
Strand | E-score
CTATAGGA | 0.00485
TAAAGGAA | -0.175
CTACAATA | 0.115
CCCATCAG | -0.137
GGGTGCAC | -0.0566
ACACGCAC | 0.0585
AAATACGC | 0.15
AGTAGCAA | -0.0202
CAGGGCGG | 0.204
GTAGTAGA | 0.011
AGATTGTG | -0.0341
CGCCCAGA | -0.0323
AATTTCCA | -0.175
TGCTAACA | -0.0555
CCCGGTCC | 0.226
CAGACCGG | 0.285
AGAGGTGA | -0.136
GACCGTGC | 0.239
ACCCAACA | -0.136
ATGAGAGA | -0.224
CGCCACCG | 0.254
ATTTGCGA | -0.161
AAGCTCTG | -0.17

Series 5 — cell line: yeast with cyclin A1-Cln2 chimera; read-out: cell growth; mode: binder; technique: competitive growth deep sequencing; form: peptide; tested at: concentration not given; setting: peptide tiling library; reading: direction not given
Sequence | growth enrichment score
PKRAKRKLYTSEISSP | 0.498
TQERKQIHCLSEDELS | -0.324
GTPKRCLDLSNLSSGE | 0.324
HPESPPRKRLKSKGSD | 0.671
ASVLSKPIFCFVKD | 0.132
TLPYDLACTGGDFVLF | -0.445
PKNAKRNLSSEFAN | 0.17
IPMIAKNLMCELDE | 0.0589

Excerpt of the above (series 2):
Strand | log2 enrichment
CUCAAGUCCUGUGCUACACAUCGUAUGUACCGAAUCGGGUUGGUUGGGGUUGGGAAAGUAUUAUGUUACGCCGUUCGGAUCUGCACUUCC | 0.938
GUCCUGUGCUACACAUCGUAUGUACCGAAUCGGGAAAGGGUUUUUGGGAAAAAAAGGGAAAGUAUUAUGUUACGCCGUUCGGAUCUGCAC | -0.208
AAGUCCUGUGCUACACAUCGUAUGUACCGAAUCGGAAAAAGGAAAGGUUUUUUUGGAAAGUAUUAUGUUACGCCGUUCGGAUCUGCACUU | -1.27
UUCACAGCCAGCAGGCAUUGGAAUAUGGCACCAAACUCGUUGGAGGAACCACUCCAGGGAAAGGAGGCCAGACACAUCUGGGCUUACCUG | -0.342
UCCUCAAGUCCUGUGCUACACAUCGUAUGUACCGAAUCGGGCGGCGGCGGGGAAAGUAUUAUGUUACGCCGUUCGGAUCUGCACUUCCAG | 0.33
